Results gathered from unrelated publications.
Protocols differ between the studies behind these lines. ± marks the error that the study gave.
KCNA2/KCNA1: KCNA2/KCNA1 (Homo sapiens, UniProt P16389+Q09470)
Sequence of UniProt P16389 (whole entry, looked up): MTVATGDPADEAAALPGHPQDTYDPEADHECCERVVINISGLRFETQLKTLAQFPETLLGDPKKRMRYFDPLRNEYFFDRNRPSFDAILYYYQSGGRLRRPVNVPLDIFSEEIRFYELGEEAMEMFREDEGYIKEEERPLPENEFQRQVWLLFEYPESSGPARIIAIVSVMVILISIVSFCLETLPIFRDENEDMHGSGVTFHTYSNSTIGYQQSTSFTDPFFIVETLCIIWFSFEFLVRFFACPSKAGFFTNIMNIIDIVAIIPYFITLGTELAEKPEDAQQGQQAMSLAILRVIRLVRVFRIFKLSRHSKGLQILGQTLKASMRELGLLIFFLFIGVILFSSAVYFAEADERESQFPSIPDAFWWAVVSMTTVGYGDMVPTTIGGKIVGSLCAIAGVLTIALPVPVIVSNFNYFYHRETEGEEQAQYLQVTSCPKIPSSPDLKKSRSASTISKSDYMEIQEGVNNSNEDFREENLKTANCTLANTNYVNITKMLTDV
Sequence of UniProt Q09470 (whole entry, looked up): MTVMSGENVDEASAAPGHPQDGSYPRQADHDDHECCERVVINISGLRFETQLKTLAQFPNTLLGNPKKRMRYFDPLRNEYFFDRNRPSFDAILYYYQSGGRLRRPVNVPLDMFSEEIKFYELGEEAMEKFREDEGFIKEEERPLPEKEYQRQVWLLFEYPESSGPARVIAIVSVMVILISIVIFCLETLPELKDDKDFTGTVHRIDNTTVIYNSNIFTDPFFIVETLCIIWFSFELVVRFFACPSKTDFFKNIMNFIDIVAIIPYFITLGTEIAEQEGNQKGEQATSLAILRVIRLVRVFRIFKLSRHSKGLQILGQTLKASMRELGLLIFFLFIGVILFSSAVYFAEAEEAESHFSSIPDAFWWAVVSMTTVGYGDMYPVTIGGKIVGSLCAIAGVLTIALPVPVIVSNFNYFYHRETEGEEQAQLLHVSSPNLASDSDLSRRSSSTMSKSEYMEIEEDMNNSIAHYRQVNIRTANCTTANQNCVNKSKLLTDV
Proteasome component C5/PSMB5: Proteasome component C5/PSMB5 (Homo sapiens, UniProt P20618+P28074)
Sequence of UniProt P20618 (whole entry, looked up): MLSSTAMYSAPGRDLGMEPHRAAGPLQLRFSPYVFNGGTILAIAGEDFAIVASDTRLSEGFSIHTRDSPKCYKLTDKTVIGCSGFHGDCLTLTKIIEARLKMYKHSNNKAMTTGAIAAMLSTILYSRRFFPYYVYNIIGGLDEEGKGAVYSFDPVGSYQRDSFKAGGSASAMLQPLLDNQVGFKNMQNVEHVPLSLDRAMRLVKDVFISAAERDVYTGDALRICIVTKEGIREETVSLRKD
Sequence of UniProt P28074 (whole entry, looked up): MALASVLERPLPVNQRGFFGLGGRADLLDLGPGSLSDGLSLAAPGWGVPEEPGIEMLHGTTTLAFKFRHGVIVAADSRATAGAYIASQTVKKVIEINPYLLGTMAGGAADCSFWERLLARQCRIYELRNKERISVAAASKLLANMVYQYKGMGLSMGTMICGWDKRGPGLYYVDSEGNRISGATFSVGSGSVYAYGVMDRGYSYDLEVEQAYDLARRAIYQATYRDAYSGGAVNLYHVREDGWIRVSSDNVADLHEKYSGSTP
GRPR: Gastrin-releasing peptide receptor (GRPR, Homo sapiens, UniProt P30550)
Sequence of UniProt P30550 (whole entry, looked up): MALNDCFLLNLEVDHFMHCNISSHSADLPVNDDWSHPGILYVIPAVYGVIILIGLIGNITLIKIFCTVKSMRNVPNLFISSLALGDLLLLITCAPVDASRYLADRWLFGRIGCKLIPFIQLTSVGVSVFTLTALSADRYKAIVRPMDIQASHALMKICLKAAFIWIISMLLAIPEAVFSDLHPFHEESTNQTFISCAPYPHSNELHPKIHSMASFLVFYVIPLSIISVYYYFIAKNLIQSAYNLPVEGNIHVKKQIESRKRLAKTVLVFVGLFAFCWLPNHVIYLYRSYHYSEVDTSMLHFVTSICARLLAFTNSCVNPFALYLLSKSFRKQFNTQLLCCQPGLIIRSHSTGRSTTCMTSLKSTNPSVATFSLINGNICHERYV
SRC: Proto-oncogene tyrosine-protein kinase Src (SRC, Homo sapiens, UniProt P12931)
Sequence of UniProt Q9NTG7 (whole entry, looked up): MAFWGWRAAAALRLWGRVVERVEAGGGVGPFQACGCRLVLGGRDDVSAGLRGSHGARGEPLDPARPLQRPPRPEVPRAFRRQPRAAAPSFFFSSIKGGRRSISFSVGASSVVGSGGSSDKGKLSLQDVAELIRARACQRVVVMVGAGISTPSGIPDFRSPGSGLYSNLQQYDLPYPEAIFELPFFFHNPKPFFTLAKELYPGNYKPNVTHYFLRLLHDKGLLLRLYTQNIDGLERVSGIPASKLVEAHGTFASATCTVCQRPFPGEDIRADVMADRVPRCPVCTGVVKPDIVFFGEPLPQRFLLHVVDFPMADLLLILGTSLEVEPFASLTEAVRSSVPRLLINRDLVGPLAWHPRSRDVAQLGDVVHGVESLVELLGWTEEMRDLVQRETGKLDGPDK
Sequence of UniProt Q15561 (whole entry, looked up): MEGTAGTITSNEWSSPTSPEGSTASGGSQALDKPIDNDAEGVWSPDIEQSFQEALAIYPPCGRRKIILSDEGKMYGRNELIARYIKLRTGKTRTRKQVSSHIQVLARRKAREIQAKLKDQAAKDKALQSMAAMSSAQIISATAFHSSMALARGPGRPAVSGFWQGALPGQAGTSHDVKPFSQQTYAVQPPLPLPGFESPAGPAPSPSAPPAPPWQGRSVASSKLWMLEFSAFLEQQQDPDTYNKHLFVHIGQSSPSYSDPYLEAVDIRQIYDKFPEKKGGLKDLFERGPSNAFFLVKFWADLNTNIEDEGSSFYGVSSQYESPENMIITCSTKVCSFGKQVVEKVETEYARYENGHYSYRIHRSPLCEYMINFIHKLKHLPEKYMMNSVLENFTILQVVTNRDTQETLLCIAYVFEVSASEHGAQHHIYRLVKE
Sequence of UniProt Q96DB2 (whole entry, looked up): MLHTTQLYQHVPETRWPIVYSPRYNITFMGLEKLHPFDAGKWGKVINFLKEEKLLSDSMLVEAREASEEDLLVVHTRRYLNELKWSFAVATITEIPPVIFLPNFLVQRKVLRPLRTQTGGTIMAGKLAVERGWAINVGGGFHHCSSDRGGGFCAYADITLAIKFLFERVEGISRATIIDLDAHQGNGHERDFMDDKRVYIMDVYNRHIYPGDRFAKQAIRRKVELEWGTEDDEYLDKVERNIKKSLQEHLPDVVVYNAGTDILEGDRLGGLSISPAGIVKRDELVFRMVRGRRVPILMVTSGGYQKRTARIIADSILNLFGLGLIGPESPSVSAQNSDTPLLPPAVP
Sequence of UniProt Q8NER1 (whole entry, looked up): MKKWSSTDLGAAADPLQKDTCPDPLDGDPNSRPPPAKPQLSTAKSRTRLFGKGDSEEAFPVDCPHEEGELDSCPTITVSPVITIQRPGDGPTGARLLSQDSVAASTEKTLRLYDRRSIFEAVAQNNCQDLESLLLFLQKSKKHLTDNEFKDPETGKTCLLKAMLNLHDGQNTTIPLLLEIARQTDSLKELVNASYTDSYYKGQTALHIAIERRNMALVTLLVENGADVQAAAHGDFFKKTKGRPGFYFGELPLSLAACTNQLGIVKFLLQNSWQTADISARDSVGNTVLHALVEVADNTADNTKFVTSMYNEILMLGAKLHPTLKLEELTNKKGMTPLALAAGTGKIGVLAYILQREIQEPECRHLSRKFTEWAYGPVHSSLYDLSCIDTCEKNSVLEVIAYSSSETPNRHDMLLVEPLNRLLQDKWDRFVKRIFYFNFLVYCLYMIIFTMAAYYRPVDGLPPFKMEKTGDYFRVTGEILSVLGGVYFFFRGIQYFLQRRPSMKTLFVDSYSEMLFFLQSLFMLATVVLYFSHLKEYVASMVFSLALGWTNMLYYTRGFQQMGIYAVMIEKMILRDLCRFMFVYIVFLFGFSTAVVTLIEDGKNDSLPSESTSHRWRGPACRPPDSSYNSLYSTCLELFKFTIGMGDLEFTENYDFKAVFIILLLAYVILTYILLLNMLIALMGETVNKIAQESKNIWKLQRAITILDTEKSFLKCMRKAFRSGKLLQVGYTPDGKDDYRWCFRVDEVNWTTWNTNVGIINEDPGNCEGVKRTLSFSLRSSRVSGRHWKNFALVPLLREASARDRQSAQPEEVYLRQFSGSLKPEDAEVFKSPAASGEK
Sequence of UniProt P00441 (whole entry, looked up): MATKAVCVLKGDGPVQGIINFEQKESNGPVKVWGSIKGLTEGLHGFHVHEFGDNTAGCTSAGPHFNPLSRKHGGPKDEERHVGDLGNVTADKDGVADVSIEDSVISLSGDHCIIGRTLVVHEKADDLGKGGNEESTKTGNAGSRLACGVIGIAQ
Sequence of UniProt Q9HT15 (whole entry, looked up): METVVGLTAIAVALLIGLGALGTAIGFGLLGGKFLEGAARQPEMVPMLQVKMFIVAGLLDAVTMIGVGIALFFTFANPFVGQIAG
Sequence of UniProt P00383 (whole entry, looked up): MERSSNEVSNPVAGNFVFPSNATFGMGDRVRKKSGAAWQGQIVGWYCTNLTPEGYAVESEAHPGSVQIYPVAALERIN

| SMILES | target | assay | system | setting | how to read | IC50 |
| --- | --- | --- | --- | --- | --- | --- |
| CN(c1ccccc1)S(=O)(=O)c1cccc(C(=O)N2CCN(C(=O)Cc3ccc(F)cc3)CC2)c1 | KCNA2/KCNA1 | potassium current, inhibitor, automated patch clamp | CHO-K1, concatemer expressing | – | – | 1.66 µM |
| C[C@]12CC[C@@H]3c4cc(Br)c(O)c(Br)c4CC[C@H]3[C@@H]1CCC2=O | AKR1C1 (Homo sapiens, UniProt Q04828) | enzyme activity, inhibitor, absorbance | – | pH 9 | – | 5.4 µM |
| Cn1c(Sc2c3c(c(C#N)c4nc5ccccc5n24)CCC3)nnc1-c1ccccc1 | ERO1-like protein alpha (Homo sapiens, UniProt Q96HE7) | enzyme activity, inhibitor, fluorescence | – | – | – | 16.8 µM |
| O=C(OC(C(F)(F)F)C(F)(F)F)N1CCC(CCn2ncc3ccccc32)CC1 | MGLL (Homo sapiens, UniProt Q99685) | enzyme activity, inhibitor | – | – | – | 0.33 µM |
| Cc1ccc(CNC(=O)[C@@H](NC(=O)[C@H](CCc2ccccc2)NC(=O)[C@@H](NC(=O)c2cnc(C)cn2)C(C)(C)C)C(C)C)cc1 | Proteasome component C5/PSMB5 | β5 activity, inhibitor | – | together with: Suc-LLVY-AMC, PA28α-activated | – | 0.159 µM |
| Cn1cc(-c2cc(N3CCCCS3(=O)=O)ccc2N[C@H]2CC[C@@](C)(O)CC2)c2cc[nH]c2c1=O | Bromodomain-containing protein 4, BD1 (BRD4, Homo sapiens, UniProt O60885) | – | – | – | – | 0.0026 ± 0.056 µM |
| O=C(NCCCN1CCC(Cc2ccccc2)CC1)c1ccc2ccccc2n1 | SLC6A3 (Homo sapiens, UniProt Q01959) | transporter uptake, inhibitor, radiometric | – | – | – | > 10 µM |
| CC(C)C[C@@H](CN[C@H](Cc1ccccc1)C(N)=O)NC(=O)[C@H](Cc1c[nH]cn1)NC(=O)CNC(=O)[C@@H](NC(=O)[C@H](C)NC(=O)[C@H](Cc1c[nH]c2ccccc12)NC(=O)[C@H](CCC(N)=O)NC(=O)[C@H](N)Cc1ccccc1)C(C)C | GRPR | inositol phosphate generation, antagonist | HuTu80 | together with: GRP | – | 0.24 ± 0.026 µM |
| C[C@H](OP(=O)(O)O)[C@H]1NC(=O)[C@@H](CCCNC(=N)N)NC(=O)[C@@H](CCCNC(=N)N)NC(=O)[C@H](CCCNC(=N)N)NC(=O)[C@H](Cc2ccc(F)cc2)NC(=O)[C@H](Cc2ccc3ccccc3c2)NC(=O)[C@@H]2CCCCN2C1=O | PIN1 (Homo sapiens, UniProt Q13526) | fluorescence anisotropy competition | – | together with: FITC-labelled probe | – | 0.96 ± 0.21 µM |
| N#CN1CC[C@H](C(=O)Nc2nc3c(s2)CN(C(=O)Cn2cc(CCCNC(=O)c4ccc(-c5c6ccc(=N)cc-6oc6cc(N)ccc56)c(C(=O)O)c4)nn2)CC3)C1 | UCHL1 (Homo sapiens, UniProt P09936) | enzyme activity, inhibitor, fluorescence | – | with preincubation | – | 0.44 µM |
| NCC(=O)NCC(=O)N[C@@H](Cc1c[nH]c2ccccc12)C(=O)N[C@@H](CO)C(=O)N[C@@H](Cc1c[nH]cn1)C(=O)N[C@@H](Cc1c[nH]c2ccccc12)C(=O)O | Fibronectin (FN1, Homo sapiens, UniProt P02751) | binding, inhibitor | – | pH 4.5 | – | 1 µM |
| Nc1ncnc2c1ncn2C1OC(COP(=O)(O)O)C(O)C1O (centres unmarked) | Chemotaxis protein CheA (Escherichia coli, UniProt P07363) | enzyme activity, inhibitor, radiometric | – | – | – | 7640 µM |
| C=C(F)C(=O)Nc1cnn2ccc(-c3ccc(C4CCCCC4)cc3)nc12 | TEAD4 (Homo sapiens, UniProt Q15561) | enzyme activity, inhibitor | – | – | – | 0.0919 µM |
| N=C(N)NCCC[C@@H]1NC(=O)[C@H](Cc2c[nH]c3ccccc23)NC(=O)[C@H](CCCNC(=N)N)NC(=O)[C@H](Cc2c[nH]c3ccccc23)NC(=O)[C@H](CCCNC(=N)N)NC(=O)[C@H](Cc2c[nH]c3ccccc23)NC(=O)[C@H](CCCNC(=N)N)NC(=O)[C@H](Cc2c[nH]c3ccccc23)NC(=O)[C@H](CCCNC(=N)N)NC(=O)[C@H](Cc2c[nH]c3ccccc23)NC(=O)[C@H](CCCNC(=N)N)NC(=O)[C@H](Cc2c[nH]c3ccccc23)NC1=O | SRC | enzyme activity, inhibitor, radiometric | – | – | – | 0.57 µM |
| O=C(O)c1ccc2nc(-c3ccc(OCCOc4ccc(-c5nc6ccc(C(=O)O)cc6[nH]5)cc4)cc3)[nH]c2c1 | Dihydrofolate reductase type 2 (Escherichia coli, UniProt P00383) | enzyme activity, inhibitor | – | pH 7 | – | 160 ± 50 µM |
| Cc1cc2c(NC(=O)N[C@@H]3CC(C)(C)Oc4c(OC(F)(F)F)cccc43)cccc2cn1 | TRPM8 (Homo sapiens, UniProt Q7Z2W7) | cell-based | – | – | – | 25 µM |
| O=c1c(/C=N/NC(=S)N/N=C/c2ccccc2O)coc2ccccc12 | SOD1 (Homo sapiens, UniProt P00441) | enzyme activity, inhibitor | HeLa | 24 h | – | 0.21 µM |
| CCc1nc2cc(C)c(Oc3ccc(OC(F)(F)F)cc3)cc2c(O)c1C | mitochondrial complex III subunit (Frankliniella occidentalis, UniProt I6NC77) | succinate-cytochrome c oxidoreductase activity, inhibitor | Frankliniella occidentalis, mitochondria | 4 min preincubation, 30 °C | – | 0.0029 µM |
| CCC1(CC)C[C@@H](NC(=O)Nc2cccc3c(C)nccc23)c2cc(F)ccc2O1 | TRPV1 (Homo sapiens, UniProt Q8NER1) | calcium influx, antagonist, FLIPR | HEK293 expressing human TRPV1 | together with: N-arachidonoyl-dopamine 3 µM | – | 0.007 µM |
| COC(=O)N1CCC(CN2CCC(CNC(=O)c3cccc4[nH]c(C(C)C)nc34)CC2)CC1 | SLC22A2 (Homo sapiens, UniProt O15244) | transporter uptake, inhibitor | – | – | – | > 10 µM |
| COc1ccc2cc(C(=O)NCCN3CCC(Cc4ccccc4)CC3)ccc2c1 | SLC6A2 (Homo sapiens, UniProt P23975) | transporter uptake, inhibitor, radiometric | – | – | – | 0.2 to 0.47 µM |

| SMILES | target | assay | system | setting | how to read | IC50 |
| --- | --- | --- | --- | --- | --- | --- |
| O=c1c2ccccc2sn1-c1ccccc1 | HDAC11 (Homo sapiens, UniProt Q96DB2) | enzyme activity, inhibitor | – | – | – | > 10 µM |
| O=C(OC(C(F)(F)F)C(F)(F)F)N1CCC(CCn2ccc3cnccc32)CC1 | Faah (Rattus norvegicus, UniProt P97612) | enzyme activity, inhibitor | – | – | – | > 10 µM |
| Cc1cc(C)nc(SC(C)C(=O)Nc2ncc(Cc3cccc4ccccc34)s2)n1 (centres unmarked) | SIRT3 (Homo sapiens, UniProt Q9NTG7) | enzyme activity, inhibitor, fluorescence | – | – | – | > 100 µM |
| CNC(=O)C1CCN(c2ccccc2NC(=O)c2ccc(-c3ccccc3C)c(C)c2)CC1 | EPHA5 (Homo sapiens, UniProt P54756) | target engagement in cells, BRET | – | – | – | 3.77 µM |
| C#CC[C@H](NC(=O)c1ccc(C(=O)c2ccccc2)cc1)C(=O)NCCCCCC(=O)N[C@@H](CCCCNC(=O)CSCCNC(=O)CCNC(=O)[C@H](O)C(C)(C)COP(=O)(O)OP(=O)(O)OC[C@H]1O[C@@H](n2cnc3c(N)ncnc32)[C@H](O)[C@@H]1OP(=O)(O)O)C(N)=O | EP300 (Homo sapiens, UniProt Q09472) | enzyme activity, inhibitor | – | – | – | 0.0267 µM |
| CN(C)c1ccc2c(c1)C(=O)N([C@H](CS)C(=O)O)C2=O | VIM-2 (Escherichia coli, UniProt Q5U7L7) | enzyme activity, inhibitor | – | pH 7 | – | 1.26 µM |
| Cc1nc2ccc(Br)cc2c(=O)n1N | Pancreatic alpha-amylase (Homo sapiens, UniProt P04746) | enzyme activity, inhibitor | – | mean of two determinations | – | 399 ± 4.95 µM |
| CCOc1cncc(-c2ccc(NC(=O)C(CC)c3ccnc(NS(=O)(=O)C4CC4)n3)nc2)n1 (centres unmarked) | CTP synthase 2 (CTPS2, Homo sapiens, UniProt Q9NRF8, T250I) | cell growth | CTPS-null Jurkat expressing CTPS2 | 3 d | – | 0.027 µM |
| O=S(=O)(Nc1cscn1)c1c(F)cc(NCc2c(F)ccc(F)c2CN2CCC2)cc1F | SCN4A (Homo sapiens, UniProt P35499) | sodium current, inhibitor, automated patch clamp | – | inactivated state protocol | – | 20.8 µM |
| CC1=C(/C=C/C(C)=C/C=C/C(C)=C/C=C/C=O)C(C)(C)CCC1 | CNGA1 (Bos taurus, UniProt Q00194) | cGMP-activated current, inhibitor, inside-out patch clamp | Xenopus oocytes | 1 h steady state, +100 mV, together with: 2 mM cGMP | – | 0.415 µM |
| C[N+](C)(CC(=O)Nc1cccc(C(F)(F)F)c1)CC(=O)Nc1cccc(C(F)(F)F)c1 | TRPV4 (Homo sapiens, UniProt Q9HBA0) | calcium signal, antagonist | – | – | – | 0.145 µM |
| COCc1nc(C(F)(F)F)[nH]c1-c1cc(C(=O)N2CC(c3ccc(C#N)cc3)C2)c(C)cc1C | Fatty acid synthase (Fasn, Mus musculus, UniProt P19096) | enzyme activity in cells, inhibitor | – | – | – | 0.012 µM |
| CCCCCC(=O)N[C@H](CC(=O)N(CC)CC)C(=O)N[C@@H](Cc1ccc(F)cc1)C(=O)N[C@@H](Cc1ccc(F)cc1F)C(=O)[C@@]1(C)CO1 | Proteasome component C5/PSMB5 | β5 enzyme activity | – | together with: Suc-LLVY-amc 65 µM, PA28α 100 nM | – | 0.832 ± 0.0637 µM |
| Cc1nc(Nc2ncc(C(=O)Nc3c(C)cccc3Cl)s2)cc(N2CCN(CCOC(=O)[C@@H](N)CCC(=O)O)CC2)n1 | SRC | enzyme activity, inhibitor | – | – | – | < 0.00043 µM |
| O=C(c1cccc(S(=O)(=O)N2CCc3ccccc3C2)c1)N1CCO[C@H](c2ccc(F)cc2)C1 | KCNA2/KCNA1 | potassium current, inhibitor, automated patch clamp | CHO-K1, concatemer expressing | – | – | 3.7 µM |
| COC(=O)[C@@H](NCc1cc2ccccc2nc1OCc1ccccc1)C(C)C | ATP synthase subunit c, whole ATP synthase complex (atpE, Pseudomonas aeruginosa, UniProt Q9HT15) | ATP synthesis, inhibitor | Pseudomonas aeruginosa, inverted membrane vesicles | 10 min, together with: NADH | – | 13.2 µM |
| COC(=O)[C@H](CC(C)C)NC(=O)[C@@H]1CCCN1C(=O)[C@@H](NC(=O)[C@H](CCC(=O)C=[N+]=[N-])NC(=O)OCc1ccccc1)C(C)C | Protein-glutamine gamma-glutamyltransferase K (Homo sapiens, UniProt P22735) | inhibitor | – | – | relative to: TG2 | increased |
| O=C(O)C(CO)NCc1cc(Cl)c(OCc2cccc(-c3ccccc3)c2Br)cc1OCc1cccnc1 (centres unmarked) | Cd274 (Mus musculus, UniProt Q9EP73) | protein-protein interaction, inhibitor, ELISA | – | – | – | > 10 µM |
| O=C(COc1cc2ccccc2cc1C(=O)NCc1ccccc1)Nc1ccccc1N1CCCC1=O | KCNA2/KCNA1 | potassium current, inhibitor, automated patch clamp | CHO-K1, concatemer expressing | – | – | 1.41 µM |
| CSCC[C@H](NC(=O)[C@H](Cc1ccccc1)NC(=O)[C@H](CO)NC(=O)CNC(=O)[C@@H](NC(=O)[C@H](C)NC(=O)[C@H](Cc1c[nH]c2ccccc12)NC(=O)[C@H](CC(C)C)NC(=O)[C@@H]1CCC(=O)N1)C(C)C)C(N)=O | GRPR | binding | HuTu80 and hGRPR-Balb 3T3 | – | – | > 1 µM |

For quick reference, copied from above:
| SMILES | target | assay | system | setting | how to read | IC50 |
| --- | --- | --- | --- | --- | --- | --- |
| O=C(OC(C(F)(F)F)C(F)(F)F)N1CCC(CCn2ncc3ccccc32)CC1 | MGLL (Homo sapiens, UniProt Q99685) | enzyme activity, inhibitor | – | – | – | 0.33 µM |
| CN(C)c1ccc2c(c1)C(=O)N([C@H](CS)C(=O)O)C2=O | VIM-2 (Escherichia coli, UniProt Q5U7L7) | enzyme activity, inhibitor | – | pH 7 | – | 1.26 µM |
| CCCCCC(=O)N[C@H](CC(=O)N(CC)CC)C(=O)N[C@@H](Cc1ccc(F)cc1)C(=O)N[C@@H](Cc1ccc(F)cc1F)C(=O)[C@@]1(C)CO1 | Proteasome component C5/PSMB5 | β5 enzyme activity | – | together with: Suc-LLVY-amc 65 µM, PA28α 100 nM | – | 0.832 ± 0.0637 µM |
| Cc1nc2ccc(Br)cc2c(=O)n1N | Pancreatic alpha-amylase (Homo sapiens, UniProt P04746) | enzyme activity, inhibitor | – | mean of two determinations | – | 399 ± 4.95 µM |
